Assay results collected from several papers.
Each line is one published result; not all experiments were run side by side.

By UniProt entry, the sequences of proteins in these tests, tags left out.
UniProt P51451, whole entry: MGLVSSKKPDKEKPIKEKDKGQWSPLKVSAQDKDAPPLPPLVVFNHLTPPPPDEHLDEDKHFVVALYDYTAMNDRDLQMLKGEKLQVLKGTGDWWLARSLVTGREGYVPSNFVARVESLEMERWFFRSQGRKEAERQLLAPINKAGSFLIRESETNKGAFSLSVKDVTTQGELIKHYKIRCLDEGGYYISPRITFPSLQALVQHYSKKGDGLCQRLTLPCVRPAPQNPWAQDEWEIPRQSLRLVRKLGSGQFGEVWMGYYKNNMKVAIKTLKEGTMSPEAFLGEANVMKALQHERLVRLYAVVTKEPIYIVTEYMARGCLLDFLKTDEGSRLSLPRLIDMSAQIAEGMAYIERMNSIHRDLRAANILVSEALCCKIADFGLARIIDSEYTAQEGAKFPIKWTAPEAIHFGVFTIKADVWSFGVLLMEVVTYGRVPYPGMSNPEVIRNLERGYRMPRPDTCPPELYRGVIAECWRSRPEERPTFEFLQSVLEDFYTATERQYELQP
UniProt Q9UK32, whole entry: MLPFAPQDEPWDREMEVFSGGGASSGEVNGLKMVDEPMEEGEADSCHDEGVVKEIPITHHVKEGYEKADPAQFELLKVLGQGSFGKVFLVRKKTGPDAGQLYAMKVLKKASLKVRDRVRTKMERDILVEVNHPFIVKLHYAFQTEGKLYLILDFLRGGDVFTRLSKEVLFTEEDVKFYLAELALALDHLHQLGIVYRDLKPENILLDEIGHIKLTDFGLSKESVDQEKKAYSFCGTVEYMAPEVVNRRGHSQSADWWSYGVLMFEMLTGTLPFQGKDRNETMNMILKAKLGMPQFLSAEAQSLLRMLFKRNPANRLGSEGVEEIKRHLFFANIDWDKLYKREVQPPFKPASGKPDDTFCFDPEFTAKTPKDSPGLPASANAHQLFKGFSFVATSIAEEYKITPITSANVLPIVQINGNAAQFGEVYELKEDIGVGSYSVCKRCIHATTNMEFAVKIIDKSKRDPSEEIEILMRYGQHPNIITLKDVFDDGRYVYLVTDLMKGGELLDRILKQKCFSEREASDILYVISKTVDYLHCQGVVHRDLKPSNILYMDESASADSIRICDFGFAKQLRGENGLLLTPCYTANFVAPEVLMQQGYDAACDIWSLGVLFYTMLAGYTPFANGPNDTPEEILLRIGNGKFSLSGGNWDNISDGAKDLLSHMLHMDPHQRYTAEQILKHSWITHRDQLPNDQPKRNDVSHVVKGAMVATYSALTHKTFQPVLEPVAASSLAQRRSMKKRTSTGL

| SMILES | target or system | test | test system | conditions | how to read | quantity | result |
| --- | --- | --- | --- | --- | --- | --- | --- |
| Cc1ccc(CCNC(=O)c2cnn3c(O)c(Cc4cc(C)ccc4C)c(C)nc23)cc1 | dengue virus 2 | viral replication, single-cycle viral yield | New Guinea C | 5 µM |  | inhibition | > 90% |
| CC#C/C(=N\OC[C@H]1COCCN1)c1ccc2ncnc(Nc3ccc(OCc4cccc(F)c4)c(Cl)c3)c2c1 | Tyrosine-protein kinase Blk (BLK, Homo sapiens, UniProt P51451) | kinase activity |  | 10 µM |  | inhibition | 42.9% |
| COC(=O)c1ccc(Cl)cc1NC(=O)CSc1ncc(S(=O)(=O)c2ccc(Br)cc2)c(=O)[nH]1 | dengue virus 2 | viral replication, single-cycle viral yield | New Guinea C | 10 µM |  | inhibition | > 90% |
| CCc1nc(N)nc(N)c1C#CCc1cc(OC)cc(-c2ccc(C(=O)O)cc2)c1 | Staphylococcus aureus |  | MRSA isolate UCH 121 |  |  | MIC | 10 µg/mL |
| CCCc1nn2c(=O)cc(CSc3nc(-c4ccc(C)cc4)nc4cc(=O)[nH]n34)nc2s1 | dengue virus 2 | viral replication, plaque reduction | BHK-21, NGC |  |  | IC50 | 1000 to 10000 nM |
| Cc1ccc(C(C)C)c(Oc2cnc(N)nc2N)c1 | Staphylococcus aureus |  | RN4220, LB broth | 19 to 24 h |  | MIC | ~50 µM |
| CCCCCCC1c2ccc(O)cc2Oc2cc(O)ccc21 | Shigella flexneri |  | ATCC 12022 | together with: PMBN 25 µg/mL |  | MIC | 1.7 µg/mL |
| CC(C)Cc1nnc2c(C(=O)NC3c4ccccc4-c4ccccc43)cccn12 | Escherichia coli | broth microdilution | MB5746 rpoZ Δ13-91 frameshift |  | relative to: mutant over wild type | MIC ratio | > 32 |
| Oc1ccc(C2NCCc3c2[nH]c2ccc(Cl)cc32)cc1O (centres unmarked) | dengue virus 2 | viral replication, plaque reduction | BHK-21, NGC |  |  | IC50 | < 1000 nM |
| CSc1nc(Cl)cc(Sc2nnc(-c3cc(C(F)(F)F)cc(C(F)(F)F)c3)[nH]2)n1 | Escherichia coli |  | MC4100 | 42 °C, without PMBN |  | MIC | > 566 µg/mL |
| CCc1nc(N)nc(N)c1C#CCc1cc(OC)c(OC)c(-c2ccncc2)c1 | Staphylococcus aureus |  | MRSA isolate HH 1184 |  |  | MIC | 1.25 µg/mL |
| CCN1CCN(Cc2ccc(NC(=O)c3ccc(C)c(/C=C/c4cnc5[nH]ccc5c4OC)c3)cc2C(F)(F)F)CC1 | Ribosomal protein S6 kinase alpha-6 (RPS6KA6, Homo sapiens, UniProt Q9UK32) | inhibitor, cell-based kinome screen |  | 5 µM | relative to: vehicle | log2 fold change | 0.217 |
| CCc1nc(N)nc(N)c1C#C[C@H](C)c1cc(OC)cc(-c2ccc(C(=O)O)cc2)c1 | Staphylococcus aureus |  | MRSA isolate UCH 1 |  |  | MIC | 5 µg/mL |
| CCNC(=O)C(CCCCNC(=O)CCOCCOCCOCCOCCNC(=O)CCNc1ccc(-c2nc3ccc(C)cc3s2)cc1)NC(=O)C(CCCCNC(=O)CCOCCOCCOCCOCCNC(=O)CCNc1ccc(-c2nc3ccc(C)cc3s2)cc1)NC(=O)C(CCCCNC(=O)CCOCCOCCOCCOCCNC(=O)CCNc1ccc(-c2nc3ccc(C)cc3s2)cc1)NC(=O)C(CCCCNC(=O)CCOCCOCCOCCOCCNC(=O)CCNc1ccc(-c2nc3ccc(C)cc3s2)cc1)NC(=O)CCOCCOCCOCCOCCNC(=O)CCNc1ccc(-c2nc3ccc(C)cc3s2)cc1 (centres unmarked) | HIV-1 | SEVI-enhanced infection, luciferase reporter | TZM-bl, IIIB |  |  | IC50 | ~200 nM |

For quick reference, copied from above:
| SMILES | target or system | test | test system | conditions | how to read | quantity | result |
| --- | --- | --- | --- | --- | --- | --- | --- |
| Cc1ccc(CCNC(=O)c2cnn3c(O)c(Cc4cc(C)ccc4C)c(C)nc23)cc1 | dengue virus 2 | viral replication, single-cycle viral yield | New Guinea C | 5 µM |  | inhibition | > 90% |
| CCCc1nn2c(=O)cc(CSc3nc(-c4ccc(C)cc4)nc4cc(=O)[nH]n34)nc2s1 | dengue virus 2 | viral replication, plaque reduction | BHK-21, NGC |  |  | IC50 | 1000 to 10000 nM |
